Assay results collected from several papers.
Every numbered part comes from another study and shows a few of its results, in no order. Positions count from the first letter of the parent shown.

Series 1
Target: Histone acetyltransferase KAT6A, winged helix 1, GST fusion (KAT6A, Homo sapiens, UniProt Q92794, residues 1-85)
Technique: protein binding microarray
Form: double-stranded DNA, one strand shown
Medium: in vitro
Tested at: not given
Setting: 8-mer, flanks averaged, mean of 2 arrays, mostly near background
Reference: not given
Reading: higher = stronger binding
Construct (chain): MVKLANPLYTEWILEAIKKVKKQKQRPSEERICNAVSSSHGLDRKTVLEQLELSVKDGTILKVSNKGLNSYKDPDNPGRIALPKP
`AAAATAGG` has an E-score of -0.143.
The E-score of `AATAAGTG` is reported as -0.21.
The E-score of `ACTACGCA` is reported as 0.0407.
`AGTCCCTC` gave an E-score of -0.0948.
With `TCGAATCA` the E-score was -0.186.
The E-score of `ACTTAGTA` is reported as -0.117.
`CTCTTTGA` gave an E-score of -0.147.
For `GTCACGGA`, the E-score was 0.337.
The E-score of `GATGAGGA` is reported as -0.193.
`CGGTGCTA` has an E-score of 0.061.
`CTTGTCGC` has an E-score of 0.274.

Series 2
Target: RNA binding protein fox-1 homolog 2, RRM domain, GST-SBP tag (RBFOX2, Homo sapiens, UniProt O43251-10, residues 100-194)
Technique: RNA Bind-n-Seq
Form: RNA
Medium: in vitro
Tested at: 365 nM
Setting: natural RNA segment, single round, ends assumed
Reference: no-protein control
Reading: higher = stronger binding
Shared flanks, not repeated: GGGAGUUCUACAGUCCGACGAUC … UGGAAUUCUCGGGUGCCAA
Residues (chain): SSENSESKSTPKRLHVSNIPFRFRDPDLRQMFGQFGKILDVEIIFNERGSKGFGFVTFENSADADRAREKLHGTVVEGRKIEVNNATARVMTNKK
`CAUUACUGUGUAUGUUAGGGUAUUAAAACUGUUUCACCAGUACAGUGAAAGUUGUUUCAACAUUUUAAACAAACAGUGGUUAUAGACUCUUUCUUUAACCAUUGUAUAUU` — result for “RBNS enrichment (R)”: 0.385.
For `UUGUGCUGUCUACCUCUCACUGGGUCCUGGUGGGGGUCGGGCUCCCUUCUCCUGGGGUGAUUGAUGGCCUGAGCCUGGGGUCCUGGUAGUAGAGACCCAGCUGGCCUGGG`, “RBNS enrichment (R)” read 0.526.
For `CGGUAUUUUAACUUUCUGCCUCGGCCUCUGUGGAUGCAGAAAUCUGCCCUACAAAAUGCUCUUCAUUGGUUGUCUCUGUGAGAGCACUGUCCCCACCCAACCUGUCACAA`, “RBNS enrichment (R)” read 0.453.
Under “RBNS enrichment (R)”, `ACUCUCAAGAUCCAUUAGCUUUUAAAAUUUCUGCCUCUGAGUCUGAAGCCCAGGUGGACAGCCAUUUUCCAUCACCCCUUUCCAGCUGUAAUCUUUCAUCCCCCUCCCCC` is recorded as 1.24.
For `CACACCUCAGUGGAAGUAGCAGAAUGCCUCCCUGACCCGGGGCUCUUAGGGACUCUUGCUGCUAUGCUUGCCAGCAAAUGGCAAUCAAGGGACAAUUAGCCACUUGCCCC`, “RBNS enrichment (R)” read 0.692.
`CAUUGUGAUGACUUUUUUGAUAUUCAUUAGAAACAAUACAUCCUUUCUGAGAUAUUUACAGUAUUAUUAAAAAAUGAAAAAGGUUGUACUGUUUUGCAUAAUGAACAUUU`: “RBNS enrichment (R)” 0.734.
`CUGGUGUAGAGCACAAGCCUCUCCACCCUAGAGAAAUGCCUCUGUACCACGGCUACCAUGUGGAACCUUAACUUGCAGAAGGCUUGUUAACAAUUGUUUUGAGAGAGAUG` — result for “RBNS enrichment (R)”: 0.306.

Series 3
Molecule: PhoQ, residues 284 288 289 292 302 303 SACGEM
Technique: Sort-seq
Measured: YFP reporter
Medium: E. coli
Setting: PhoQ-PhoP variant library
With: 10 µM Mg2+
Reference: high Mg2+ state
Reading: higher = stronger signaling
It gave 2 for fold induction (PhoP, residues 12 14 15 18 19 TQALL (Escherichia coli, UniProt P23836)).
PhoP, residues 12 14 15 18 19 QYFSL (Escherichia coli, UniProt P23836) — fold induction: 15.5.
The fold induction was 13.8 (PhoP, residues 12 14 15 18 19 NYFRM (Escherichia coli, UniProt P23836)).

Series 4
Target: CCNB2, cyclin fold, Cln2 fusion (human)
Technique: yeast growth competition, sequencing
Medium: yeast
Setting: strong parent motif
Reference: not given
Reading: higher = stronger binding
Starting sequence: PKMYT1 docking peptide (human); SFEPRNLLSLFED
`F11V` — result for “normalised enrichment score”: -0.485.
Under “normalised enrichment score”, `E3K` is recorded as 1.5.
Under “normalised enrichment score”, `L7I` is recorded as -0.395.
For `F11K`, “normalised enrichment score” read -0.118.
Under “normalised enrichment score”, `S1T` is recorded as 1.26.
`F2E` — result for “normalised enrichment score”: -0.601.

Excerpt of the above (series 2):
For `CGGUAUUUUAACUUUCUGCCUCGGCCUCUGUGGAUGCAGAAAUCUGCCCUACAAAAUGCUCUUCAUUGGUUGUCUCUGUGAGAGCACUGUCCCCACCCAACCUGUCACAA`, “RBNS enrichment (R)” read 0.453.
Under “RBNS enrichment (R)”, `ACUCUCAAGAUCCAUUAGCUUUUAAAAUUUCUGCCUCUGAGUCUGAAGCCCAGGUGGACAGCCAUUUUCCAUCACCCCUUUCCAGCUGUAAUCUUUCAUCCCCCUCCCCC` is recorded as 1.24.
For `CACACCUCAGUGGAAGUAGCAGAAUGCCUCCCUGACCCGGGGCUCUUAGGGACUCUUGCUGCUAUGCUUGCCAGCAAAUGGCAAUCAAGGGACAAUUAGCCACUUGCCCC`, “RBNS enrichment (R)” read 0.692.
`CAUUGUGAUGACUUUUUUGAUAUUCAUUAGAAACAAUACAUCCUUUCUGAGAUAUUUACAGUAUUAUUAAAAAAUGAAAAAGGUUGUACUGUUUUGCAUAAUGAACAUUU`: “RBNS enrichment (R)” 0.734.
